Experimental data from different studies.
Compare with care: the assays were run in different laboratories. Several values in a cell are separate wells, animals, samples, runs or records. ± marks the error that the study gave. In brackets after ≈: the same amount, converted by molar mass.
Sequence of UniProt P62258 (whole entry, looked up): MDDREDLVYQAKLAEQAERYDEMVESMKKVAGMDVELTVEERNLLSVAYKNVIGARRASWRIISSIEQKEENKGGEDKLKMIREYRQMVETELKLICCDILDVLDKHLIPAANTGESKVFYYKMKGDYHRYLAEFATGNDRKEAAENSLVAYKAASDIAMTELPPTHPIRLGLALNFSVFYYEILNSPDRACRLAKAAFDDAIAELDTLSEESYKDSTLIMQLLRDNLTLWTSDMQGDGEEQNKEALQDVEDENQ
Sequence of UniProt Q14680 (whole entry, looked up): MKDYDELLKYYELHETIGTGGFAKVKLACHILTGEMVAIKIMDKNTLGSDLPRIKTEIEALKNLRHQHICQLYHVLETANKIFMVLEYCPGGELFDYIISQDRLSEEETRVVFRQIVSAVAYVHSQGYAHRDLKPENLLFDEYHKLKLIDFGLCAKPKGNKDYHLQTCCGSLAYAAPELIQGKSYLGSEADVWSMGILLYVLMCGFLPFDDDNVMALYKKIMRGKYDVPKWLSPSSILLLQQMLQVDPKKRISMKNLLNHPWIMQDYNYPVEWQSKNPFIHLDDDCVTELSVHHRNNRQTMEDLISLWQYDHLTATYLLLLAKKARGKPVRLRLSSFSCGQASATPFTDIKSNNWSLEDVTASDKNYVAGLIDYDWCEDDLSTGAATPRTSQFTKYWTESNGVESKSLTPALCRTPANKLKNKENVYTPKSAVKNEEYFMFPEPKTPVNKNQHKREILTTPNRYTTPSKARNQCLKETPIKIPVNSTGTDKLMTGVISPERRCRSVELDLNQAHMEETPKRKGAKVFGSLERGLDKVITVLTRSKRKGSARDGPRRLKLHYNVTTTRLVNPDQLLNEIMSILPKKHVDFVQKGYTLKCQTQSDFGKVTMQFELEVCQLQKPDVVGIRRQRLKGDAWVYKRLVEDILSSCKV
Sequence of UniProt P55211 (whole entry, looked up): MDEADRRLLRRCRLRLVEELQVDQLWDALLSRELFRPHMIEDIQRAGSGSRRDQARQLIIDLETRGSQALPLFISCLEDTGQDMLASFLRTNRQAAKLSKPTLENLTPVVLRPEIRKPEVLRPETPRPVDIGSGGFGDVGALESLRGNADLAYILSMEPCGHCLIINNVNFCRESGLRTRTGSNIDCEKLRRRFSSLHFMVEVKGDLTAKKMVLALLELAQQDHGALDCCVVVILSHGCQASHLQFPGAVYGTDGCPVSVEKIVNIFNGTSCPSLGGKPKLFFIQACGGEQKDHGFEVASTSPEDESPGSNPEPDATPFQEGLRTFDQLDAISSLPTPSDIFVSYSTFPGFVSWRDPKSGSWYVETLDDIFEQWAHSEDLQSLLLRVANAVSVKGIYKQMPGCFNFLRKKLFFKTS
Sequence of UniProt Q96IU4 (whole entry, looked up): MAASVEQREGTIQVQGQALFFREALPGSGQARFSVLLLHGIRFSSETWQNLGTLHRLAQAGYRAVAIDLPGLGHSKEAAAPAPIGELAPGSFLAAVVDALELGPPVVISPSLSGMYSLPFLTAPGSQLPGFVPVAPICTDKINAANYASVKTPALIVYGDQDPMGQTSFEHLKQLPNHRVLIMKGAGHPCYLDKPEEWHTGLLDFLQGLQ

Compound	tested on	test	system	setting	scale	measurement	result
CC(C)[C@H](NC(=O)[C@H](CCCNC(=N)N)NC(=O)N[C@@H](Cc1ccccc1)C(=O)O)C(=O)N[C@H](C=O)CCCNC(=N)N	human coronavirus 229E	viral replication	Huh7.5	–	–	EC50	2 ± 0.2 µM
CC[C@H](C)[C@H](NC(=O)[C@H](C)NC(=O)[C@H](CCCCN)NC(=O)[C@H](CC(C)C)NC(=O)[C@H](C)NC(=O)[C@@H](NC(=O)[C@H](Cc1c[nH]cn1)NC(=O)[C@H](CC(C)C)NC(=O)[C@@H](NC(=O)[C@@H](NC(=O)[C@H](CCCCN)NC(=O)[C@H](C)NC(=O)[C@H](C)NC(=O)[C@H](CO)NC(=O)[C@H](CCCCN)NC(=O)[C@H](Cc1ccccc1)NC(=O)[C@@H](NC(=O)[C@H](CCCCN)NC(=O)[C@H](CC(C)C)NC(=O)[C@H](Cc1ccccc1)NC(=O)[C@H](CO)NC(=O)[C@H](CCCCN)NC(=O)[C@H](Cc1c[nH]c2ccccc12)NC(=O)[C@H](CCCCN)NC(C)=O)[C@@H](C)O)[C@@H](C)O)C(C)C)[C@@H](C)O)C(=O)N[C@@H](CO)C(=O)N[C@@H](CO)C(N)=O	Enterobacter aerogenes	–	–	40 strains	–	MIC90	> 64 µg/mL
COc1ccc(C[C@H]2NC[C@H](O)[C@H]2OC(C)=O)cc1	human coronavirus 229E	viral replication	luciferase reporter	–	–	IC50	0.016 µM
Cc1nc(NCCNc2ccnc3cc(Cl)ccc23)nc(-c2ccccc2[N+](=O)[O-])c1C(=O)OC(C)C	parainfluenza virus 3	viral replication	Vero	–	–	EC50	> 20 µM
CCNC(=O)c1sc2nc(-c3ccc(Cl)cc3Cl)cc(C(F)(F)F)c2c1N	Mycobacterium tuberculosis	growth inhibition	H37Rv LepB under-expressing	–	–	IC50	> 100 µM
CCOC(=O)c1c(C)nc(NCCCCNc2ccnc3cc(Cl)ccc23)nc1C	parainfluenza virus 3	viral replication	Vero	–	–	EC50	> 20 µM
NC(=O)c1nc(F)c[nH]c1=O	lymphocytic choriomeningitis virus	reporter gene	BHK-21	100 µM, minigenome, Gaussia luciferase	reference: DMSO	reporter activity	69.6%
C[C@@H](O)[C@@H](CO)NC(=O)[C@@H](CCCNC(=N)N)NC(=O)[C@@H]1CCCN1C(=O)[C@@H]1CSSC[C@H](NC(=O)[C@H](Cc2ccccc2)NC(=O)CN2CCN(CC(=O)O)CCN(CC(=O)O)CCN(CC(=O)O)CC2)C(=O)N[C@@H](Cc2ccc(O)cc2)C(=O)N[C@@H](Cc2ccccc2)C(=O)N[C@@H](CCC(N)=O)C(=O)N[C@@H](CC(N)=O)C(=O)N1 [gallium-68 labelled]	–	–	Wistar rat, healthy, sublingual gland	intravenous, 8 MBq, 60 min	–	tissue uptake	0.15 %ID/g
COc1ccc2cc1Oc1ccc(cc1)C[C@H]1c3cc(c(OC)cc3CCN1C)Oc1c(O)c(OC)cc3c1[C@H](C2)N(C)CC3	Influenza A virus	viral replication	MDCK, A/HanFang/359/95 (H3N2)	48 h	–	IC50	4.45 ± 1 µM
O=C(O)C1=CC(=C(c2ccc(O)c(C(=O)O)c2)c2ccc(O)c(C(=O)O)c2)C=CC1=O	lymphocytic choriomeningitis virus	reporter gene	BHK-21	100 µM, minigenome, Gaussia luciferase	reference: DMSO	reporter activity	168%
CCC(CC)COC(=O)[C@H](C)N[P@](=O)(OC[C@H]1O[C@@](C#N)(c2ccc3c(N)ncnn23)[C@H](O)[C@@H]1O)Oc1ccccc1	Influenza A virus H1N1	ELISA of viral NP	MDCK, A/Puerto Rico/8/34	concentration not given	–	anti-influenza activity	inactive
COc1ccc(-c2cc(C(F)(F)F)c3c(N)c(C(=O)NC(C)C4CCCCC4)sc3n2)cc1 (stereo not drawn)	Mycobacterium tuberculosis	–	H37Rv wild type	–	reference: HepG2 IC50 over M. tuberculosis IC90	selectivity index	> 91
C[C@H]1CN(c2n[nH]c3nc(N[C@H]4CC[C@H](NS(=O)(=O)CCC(F)(F)F)CC4)ncc23)CCO1	14-3-3 protein epsilon (Homo sapiens, UniProt P62258)	Kinobeads competition, measured: YWHAE	–	0.8 µM, unit not given	reference: vehicle	remaining binding	1.19
OC(Cn1cncn1)(Cn1cncn1)c1ccc(F)cc1F	Saccharomyces cerevisiae	cell growth	Pdr5 deleted, Cdr1 overexpressed	2^4.322 µg/mL	–	OD600	0.889 and 0.966 and 1
COc1c(N2C[C@@H]3CCCN[C@@H]3C2)c(F)cc2c(=O)c(C(=O)O)cn(C3CC3)c12	Mycobacterium chelonae	–	ATCC 35752	–	–	MIC	0.02 µM
Nc1c(C(=O)N2CCOCC2)sc2nc(Cl)ccc12	Mycobacterium tuberculosis	–	H37Rv wild type	120 h	–	IC90	inactive
Cn1c(=O)ccc2ccc(F)c(CCNC[C@H]3CN(c4cnc5c(n4)NC(=O)CO5)C(=O)O3)c21	Burkholderia cepacia	–	–	–	–	MIC50	0.06 µg/mL (≈ 0.128 µM)
CCNC(=O)[C@@H](NC(=O)c1ccccc1NC(=O)c1ccc(OC)cc1)C(C)C	human coronavirus 229E	viral replication, plaque reduction	MRC-5	6 days	–	EC50	> 50 µM
CC[C@H](C)[C@@H]1NC(=O)[C@@H]2CCCN2C(=O)[C@H](CC(C)C)NC(=O)[C@H](CC(C)C)NC(=O)CNC(=O)[C@@H](NC(=O)[C@@H](NC(=O)[C@H](CC(=O)O)NC(=O)CNC(=O)[C@@H](NC(=O)[C@H](C)NC(=O)CNC(=O)[C@H](CCCCN)NC(=O)[C@H](CC(C)C)NC(=O)[C@H](CC(C)C)NC(=O)[C@H](CCCCN)NC(=O)CNC(=O)[C@@H](NC(=O)[C@@H](N)CC(C)C)C(C)C)C(C)C)C(C)C)CSSC[C@@H](C(=O)O)NC1=O	–	RNA-seq, measured: Fos mRNA	mouse traumatic brain injury, frontal cortex and hippocampus	dose not given	reference: TBI plus compound vs TBI	log2 fold change	-1.57
COc1c(CCC[P+](c2ccccc2)(c2ccccc2)c2ccccc2)cc2c(c1OC)OCO2.[I-]	HT-29	SRB	–	–	–	TGI	-4.72 log M
COc1ccc(-c2cc(C(F)(F)F)c3c(N)c(C(=O)Nc4ccc(C)cc4C)sc3n2)cc1	Mycobacterium tuberculosis	growth inhibition	H37Rv LepB under-expressing	–	–	IC50	0.55 ± 0.3 µM

Compound	tested on	test	system	setting	scale	measurement	result
Cc1nc(NCCCCNc2ccnc3cc(Cl)ccc23)nc(-c2ccccc2[N+](=O)[O-])c1C(=O)OC(C)C	parainfluenza virus 3	viral replication	Vero	–	–	EC50	> 20 µM
COc1cc(Nc2ncc(F)c(Nc3ccc4c(n3)NC(=O)C(C)(C)O4)n2)cc(OC)c1OC	Caspase-9 (CASP9, Homo sapiens, UniProt P55211)	–	–	–	–	IC50	> 10 µM
CC[C@H](C)[C@H](NC(=O)[C@H](Cc1ccccc1)NC(=O)[C@H](CCC(=O)O)NC(=O)[C@H](CCCNC(=N)N)NC(=O)[C@H](C)NC(=O)[C@H](C)NC(=O)[C@H](CCC(N)=O)NC(=O)[C@H](CCC(=O)O)NC(=O)[C@H](CCC(=O)O)NC(=O)[C@H](CC(C)C)NC(=O)[C@H](Cc1ccc(O)cc1)NC(=O)[C@H](CO)NC(=O)[C@H](CO)NC(=O)[C@@H](NC(=O)[C@H](CC(=O)O)NC(=O)[C@H](CO)NC(=O)[C@@H](NC(=O)[C@H](Cc1ccccc1)NC(=O)[C@@H](NC(=O)CNC(=O)[C@H](CCC(=O)O)NC(=O)[C@H](C)NC(=O)CCc1c[nH]cn1)[C@@H](C)O)[C@@H](C)O)C(C)C)C(=O)N[C@@H](C)C(=O)N[C@@H](Cc1c[nH]c2ccccc12)C(=O)N[C@@H](CC(C)C)C(=O)N[C@H](C(=O)N[C@@H](CCCNC(=N)N)C(=O)NCC(=O)N[C@@H](CCCNC(=N)N)C(=O)N[C@@H](CCCCNC(=O)COCCOCCNC(=O)COCCOCCNC(=O)CC[C@H](NC(=O)CCCCCCCCCCCCCCCCC(=O)O)C(=O)O)C(=O)NCC(=O)NCC(=O)N[C@@H](CO)C(=O)N[C@@H](CCCCNc1c(NCCCCCN(O)C(=O)CCC(=O)NCCCCCN(O)C(=O)CCC(=O)NCCCCCN(O)C(C)=O)c(=O)c1=O)C(=O)O)C(C)C [zirconium-89 labelled]	–	–	rat, duodenum	sc, 3 nmol/kg, 168 h, ex vivo	–	tissue uptake	0.11 %ID/g
CN1CC[C@@H](c2c(O)cc(O)c3c(=O)cc(-c4ccc(C(F)(F)F)cc4Cl)oc23)[C@@H]1CO	–	measured: Leukopenia	relapsed or refractory haematological malignancies	oral, dose not given, grade 3 to 4, all arms	–	patients with adverse event	5%
COc1cc2c(Oc3ccc4[nH]c(C)cc4c3F)ccnc2cc1OCC1(N)CC1	–	–	paediatric refractory sarcoma patients	10 mg	–	grade 3 mouth ulcer	0%
Cc1ncc([N+](=O)[O-])n1CCO	Burkholderia cepacia	–	6349	–	–	MIC	> 256 µg/mL
COc1ccc(C(=O)Nc2ccccc2C(=O)N[C@H](C(=O)N[C@H](CO)C(C)C)C(C)C)cc1	human coronavirus 229E	viral replication, plaque reduction	MRC-5	6 days	–	EC50	> 50 µM
O=C(O)c1cn(C2CC2)c2cc(N3CCNCC3)c(F)cc2c1=O	Burkholderia cepacia	–	6349	–	–	MIC	1 µg/mL
NC(=O)c1ncn([C@@H]2O[C@H](CO)[C@@H](O)[C@H]2O)n1	Influenza A virus H1N1	cytopathic effect, MTS	MDCK	–	–	EC50	6.2 µM
O=C(c1ccc(OCCN2CCCCC2)cc1)c1c(-c2ccc(O)cc2)sc2cc(O)ccc12	human coronavirus 229E	viral replication	MRC-5	48 h	–	EC50	4.5 µM
Nc1c(C(=O)N2CCCC2)sc2nc(-c3ccc4c(c3)OCO4)cc(C(F)(F)F)c12	Mycobacterium tuberculosis	growth inhibition	H37Rv LepB under-expressing	–	–	IC50	> 100 µM
COc1ccc(N2C(=O)N(c3c(C)cccc3Cl)Cc3cnc(Nc4ccc(C5CCN(C)CC5)cc4OC)nc32)nc1	Maternal embryonic leucine zipper kinase (MELK, Homo sapiens, UniProt Q14680)	kinase activity	–	0.5 µM	–	inhibition	39%
COc1ccc(-c2cc(C(F)(F)F)c3c(N)c(C(=O)N4CC(OC)C4)sc3n2)cc1	Mycobacterium tuberculosis	growth inhibition	H37Rv LepB under-expressing	–	–	IC50	> 100 µM
CCOC(=O)c1c(C)nc(NCCCCNc2ccnc3cc(Cl)ccc23)nc1-c1ccccc1	parainfluenza virus 3	viral replication	Vero	–	–	EC50	> 100 µM
COc1ccc(-c2cc(C(F)(F)F)c3c(N)c(C(=O)NCc4ccccc4)sc3n2)cc1	Mycobacterium tuberculosis	–	H37Rv wild type	–	reference: HepG2 IC50 over M. tuberculosis IC90	selectivity index	< 1
NC(=O)c1ncn([C@@H]2O[C@H](CO)[C@@H](O)[C@H]2O)n1	human coronavirus 229E	viral replication	Huh-7	–	–	EC50	24.8 ± 7.7 µM
CC(C)[C@H](NC(=O)c1ccccc1NC(=O)c1ccccn1)C(=O)N[C@H](CO)C(C)C	human coronavirus 229E	viral replication, plaque reduction	MRC-5	6 days	–	EC50	> 50 µM
COc1ccc(-c2cc(C(F)(F)F)c3c(N)c(C(=O)Nc4cc(C)cc(C)c4)sc3n2)cc1	Mycobacterium tuberculosis	growth inhibition	H37Rv LepB under-expressing	–	–	IC50	> 100 µM
O=C(c1ccc(Cl)cc1)N1CCN2C(=O)N(OC(=O)N3CCOc4ccccc43)C(=O)C2C1 (stereo not drawn)	Putative protein-lysine deacylase ABHD14B (Homo sapiens, UniProt Q96IU4)	enzyme activity, inhibitor, MS-based ABPP	SW-620 conditioned medium	10 µM, 1 h, 37 °C	reference: compound over DMSO, lower = stronger inhibition	median ratio	1.47
COc1ccc2cc1Oc1ccc(cc1)C[C@H]1c3cc(c(OC)cc3CCN1C)Oc1c(OC)c(OC)cc3c1[C@@H](C2)N(C)CC3	Influenza A virus	viral replication	MDCK, A/HanFang/359/95 (H3N2)	48 h	–	IC50	5.02 ± 0.53 µM
CO[C@H]1C[C@@H]2CC[C@@H](C)[C@@](O)(O2)C(=O)C(=O)N2CCCC[C@H]2C(=O)O[C@H]([C@H](C)C[C@@H]2CC[C@@H](OC(=O)NCCOCCOCCOCCOCCOCCOCCOCCOCCC(=O)N3CCc4cc(Cn5nc(-c6ccc7oc(N)nc7c6)c6c(N)ncnc65)ccc4C3)[C@H](OC)C2)C[C@@H](O)[C@H](C)/C=C(\C)[C@@H](O)[C@@H](OC)C(=O)[C@H](C)C[C@H](C)/C=C/C=C/C=C/1C	–	phase 1 dose escalation, measured: gastric haemorrhage	advanced solid tumour patients	intravenous, 12 mg weekly, grade ≥3	–	dose-reducing adverse events	0%

For quick reference, copied from above:
Compound	tested on	test	system	setting	scale	measurement	result
OC(Cn1cncn1)(Cn1cncn1)c1ccc(F)cc1F	Saccharomyces cerevisiae	cell growth	Pdr5 deleted, Cdr1 overexpressed	2^4.322 µg/mL	–	OD600	0.889 and 0.966 and 1
COc1c(N2C[C@@H]3CCCN[C@@H]3C2)c(F)cc2c(=O)c(C(=O)O)cn(C3CC3)c12	Mycobacterium chelonae	–	ATCC 35752	–	–	MIC	0.02 µM
Nc1c(C(=O)N2CCOCC2)sc2nc(Cl)ccc12	Mycobacterium tuberculosis	–	H37Rv wild type	120 h	–	IC90	inactive
Cn1c(=O)ccc2ccc(F)c(CCNC[C@H]3CN(c4cnc5c(n4)NC(=O)CO5)C(=O)O3)c21	Burkholderia cepacia	–	–	–	–	MIC50	0.06 µg/mL (≈ 0.128 µM)
CCNC(=O)[C@@H](NC(=O)c1ccccc1NC(=O)c1ccc(OC)cc1)C(C)C	human coronavirus 229E	viral replication, plaque reduction	MRC-5	6 days	–	EC50	> 50 µM
